# Measurements from different studies.
# A part holds a random share of what one study measured. “And” joins repeats or separate records; there may be more than shown.
# Sequence of UniProt Q9Y6E0 (whole entry, looked up): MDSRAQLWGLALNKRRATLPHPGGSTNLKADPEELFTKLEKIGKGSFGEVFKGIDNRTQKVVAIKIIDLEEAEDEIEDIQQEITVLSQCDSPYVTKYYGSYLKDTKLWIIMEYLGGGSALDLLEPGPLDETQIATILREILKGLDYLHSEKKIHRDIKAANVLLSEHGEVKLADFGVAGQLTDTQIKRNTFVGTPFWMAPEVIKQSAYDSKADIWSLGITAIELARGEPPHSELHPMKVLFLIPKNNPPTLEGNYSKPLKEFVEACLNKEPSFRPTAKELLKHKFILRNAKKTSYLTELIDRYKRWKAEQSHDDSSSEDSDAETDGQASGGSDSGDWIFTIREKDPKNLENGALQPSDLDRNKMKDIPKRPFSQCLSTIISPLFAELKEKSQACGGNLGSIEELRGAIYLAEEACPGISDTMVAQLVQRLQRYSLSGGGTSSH
# Sequence of UniProt O94768 (whole entry, looked up): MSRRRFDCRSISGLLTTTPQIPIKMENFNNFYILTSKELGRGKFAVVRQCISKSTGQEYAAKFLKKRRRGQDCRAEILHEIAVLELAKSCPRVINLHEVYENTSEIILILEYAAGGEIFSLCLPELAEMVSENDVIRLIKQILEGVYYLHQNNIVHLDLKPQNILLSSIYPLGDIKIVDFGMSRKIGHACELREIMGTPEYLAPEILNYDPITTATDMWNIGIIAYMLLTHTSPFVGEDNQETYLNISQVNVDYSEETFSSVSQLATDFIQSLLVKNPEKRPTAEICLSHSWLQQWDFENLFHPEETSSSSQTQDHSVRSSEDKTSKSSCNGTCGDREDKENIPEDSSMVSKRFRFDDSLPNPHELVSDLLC
# Sequence of UniProt P31152 (whole entry, looked up): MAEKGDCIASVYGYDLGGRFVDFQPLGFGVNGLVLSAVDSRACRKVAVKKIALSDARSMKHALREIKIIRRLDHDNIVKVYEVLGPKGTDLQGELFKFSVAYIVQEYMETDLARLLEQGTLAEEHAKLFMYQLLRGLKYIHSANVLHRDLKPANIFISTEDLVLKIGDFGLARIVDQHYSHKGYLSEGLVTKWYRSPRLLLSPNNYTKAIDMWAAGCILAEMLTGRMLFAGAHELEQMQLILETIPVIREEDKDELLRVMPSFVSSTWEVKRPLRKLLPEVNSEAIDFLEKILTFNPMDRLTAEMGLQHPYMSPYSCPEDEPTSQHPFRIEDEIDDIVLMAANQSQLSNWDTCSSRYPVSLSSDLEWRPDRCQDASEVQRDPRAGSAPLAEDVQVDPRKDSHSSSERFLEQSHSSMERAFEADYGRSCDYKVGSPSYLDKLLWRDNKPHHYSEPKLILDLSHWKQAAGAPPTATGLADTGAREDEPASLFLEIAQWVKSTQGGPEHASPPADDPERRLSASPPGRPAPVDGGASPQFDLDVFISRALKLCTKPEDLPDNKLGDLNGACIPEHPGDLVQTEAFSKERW
# Sequence of UniProt Q02763 (whole entry, looked up): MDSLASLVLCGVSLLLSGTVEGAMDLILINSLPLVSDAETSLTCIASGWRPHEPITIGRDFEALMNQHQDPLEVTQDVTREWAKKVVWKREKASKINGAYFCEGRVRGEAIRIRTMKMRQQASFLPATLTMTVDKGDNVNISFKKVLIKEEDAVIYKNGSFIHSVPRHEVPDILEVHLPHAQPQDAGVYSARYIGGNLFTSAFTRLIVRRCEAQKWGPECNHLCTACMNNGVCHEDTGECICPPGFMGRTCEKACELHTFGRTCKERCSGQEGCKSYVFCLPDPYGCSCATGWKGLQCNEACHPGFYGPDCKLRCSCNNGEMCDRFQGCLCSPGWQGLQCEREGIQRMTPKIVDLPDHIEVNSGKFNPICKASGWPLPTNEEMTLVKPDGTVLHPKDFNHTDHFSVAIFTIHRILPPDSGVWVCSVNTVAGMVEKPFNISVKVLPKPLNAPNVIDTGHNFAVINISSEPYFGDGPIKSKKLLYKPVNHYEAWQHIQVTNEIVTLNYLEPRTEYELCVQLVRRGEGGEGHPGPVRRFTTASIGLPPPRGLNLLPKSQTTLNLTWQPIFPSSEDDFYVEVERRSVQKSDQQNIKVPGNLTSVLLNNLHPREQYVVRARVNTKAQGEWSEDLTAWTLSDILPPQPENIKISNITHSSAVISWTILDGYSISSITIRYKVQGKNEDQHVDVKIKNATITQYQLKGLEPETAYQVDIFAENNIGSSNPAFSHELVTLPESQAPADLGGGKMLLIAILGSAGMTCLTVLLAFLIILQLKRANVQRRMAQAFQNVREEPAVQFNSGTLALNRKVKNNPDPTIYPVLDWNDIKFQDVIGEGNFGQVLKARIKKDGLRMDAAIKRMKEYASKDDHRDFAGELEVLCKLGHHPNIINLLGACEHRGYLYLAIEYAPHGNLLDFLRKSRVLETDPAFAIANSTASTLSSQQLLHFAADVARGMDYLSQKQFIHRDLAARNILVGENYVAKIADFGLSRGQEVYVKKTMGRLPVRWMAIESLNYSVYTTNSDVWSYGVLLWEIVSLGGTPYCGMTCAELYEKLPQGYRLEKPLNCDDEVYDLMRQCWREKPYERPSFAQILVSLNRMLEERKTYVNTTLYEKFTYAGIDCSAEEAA

# Block 1 — host: mouse; medium: microsomes or S9; concentration: 2 µM; time: 0.5 h
SMILES,remaining compound [%]
CC(C)Cc1csc2nc(O)n3nc(-c4ccco4)nc3c12,54.6
O=C(NC1CCN(Cc2cccc3c2OCO3)CC1)c1cc2ccccc2o1,14.6
CCn1cc(-c2cc(C(F)F)n3nc(C)cc3n2)c(C)n1,0.0579
COc1cc(/C=C/C(=O)O)cc(S(=O)(=O)Nc2cccc(-c3n[nH]c4c3CCC4)c2)c1OC,69.5
Cc1cc(C)n(-c2nncn2/N=C/c2cccc3ccccc23)n1,9.44

# Block 2 — mode: inhibitor
# SMILES: Cc1nc(Nc2ncc(C(=O)Nc3c(C)cccc3Cl)s2)cc(N2CCN(CCO)CC2)n1
target,conditions,inhibition
"PRKD2 (Homo sapiens, UniProt Q9BZL6)",10 µM,< 50%
"ZAP70 (Homo sapiens, UniProt P43403)",1 µM,< 50%
"TGFBR2 (Homo sapiens, UniProt P37173)",10 µM,84%
"MAP2K6 (Homo sapiens, UniProt P52564)",10 µM,< 50%
"CSNK1A1L (Homo sapiens, UniProt Q8N752)",10 µM,< 50%

# Block 3 — read-out: enzyme activity; mode: inhibitor; concentration: 77 µM; reference: untreated
# Target: DNA polymerase theta, ATPase domain (POLQ, Homo sapiens, UniProt O75417)
# Sequence of UniProt O75417 (whole entry, unmodified, looked up): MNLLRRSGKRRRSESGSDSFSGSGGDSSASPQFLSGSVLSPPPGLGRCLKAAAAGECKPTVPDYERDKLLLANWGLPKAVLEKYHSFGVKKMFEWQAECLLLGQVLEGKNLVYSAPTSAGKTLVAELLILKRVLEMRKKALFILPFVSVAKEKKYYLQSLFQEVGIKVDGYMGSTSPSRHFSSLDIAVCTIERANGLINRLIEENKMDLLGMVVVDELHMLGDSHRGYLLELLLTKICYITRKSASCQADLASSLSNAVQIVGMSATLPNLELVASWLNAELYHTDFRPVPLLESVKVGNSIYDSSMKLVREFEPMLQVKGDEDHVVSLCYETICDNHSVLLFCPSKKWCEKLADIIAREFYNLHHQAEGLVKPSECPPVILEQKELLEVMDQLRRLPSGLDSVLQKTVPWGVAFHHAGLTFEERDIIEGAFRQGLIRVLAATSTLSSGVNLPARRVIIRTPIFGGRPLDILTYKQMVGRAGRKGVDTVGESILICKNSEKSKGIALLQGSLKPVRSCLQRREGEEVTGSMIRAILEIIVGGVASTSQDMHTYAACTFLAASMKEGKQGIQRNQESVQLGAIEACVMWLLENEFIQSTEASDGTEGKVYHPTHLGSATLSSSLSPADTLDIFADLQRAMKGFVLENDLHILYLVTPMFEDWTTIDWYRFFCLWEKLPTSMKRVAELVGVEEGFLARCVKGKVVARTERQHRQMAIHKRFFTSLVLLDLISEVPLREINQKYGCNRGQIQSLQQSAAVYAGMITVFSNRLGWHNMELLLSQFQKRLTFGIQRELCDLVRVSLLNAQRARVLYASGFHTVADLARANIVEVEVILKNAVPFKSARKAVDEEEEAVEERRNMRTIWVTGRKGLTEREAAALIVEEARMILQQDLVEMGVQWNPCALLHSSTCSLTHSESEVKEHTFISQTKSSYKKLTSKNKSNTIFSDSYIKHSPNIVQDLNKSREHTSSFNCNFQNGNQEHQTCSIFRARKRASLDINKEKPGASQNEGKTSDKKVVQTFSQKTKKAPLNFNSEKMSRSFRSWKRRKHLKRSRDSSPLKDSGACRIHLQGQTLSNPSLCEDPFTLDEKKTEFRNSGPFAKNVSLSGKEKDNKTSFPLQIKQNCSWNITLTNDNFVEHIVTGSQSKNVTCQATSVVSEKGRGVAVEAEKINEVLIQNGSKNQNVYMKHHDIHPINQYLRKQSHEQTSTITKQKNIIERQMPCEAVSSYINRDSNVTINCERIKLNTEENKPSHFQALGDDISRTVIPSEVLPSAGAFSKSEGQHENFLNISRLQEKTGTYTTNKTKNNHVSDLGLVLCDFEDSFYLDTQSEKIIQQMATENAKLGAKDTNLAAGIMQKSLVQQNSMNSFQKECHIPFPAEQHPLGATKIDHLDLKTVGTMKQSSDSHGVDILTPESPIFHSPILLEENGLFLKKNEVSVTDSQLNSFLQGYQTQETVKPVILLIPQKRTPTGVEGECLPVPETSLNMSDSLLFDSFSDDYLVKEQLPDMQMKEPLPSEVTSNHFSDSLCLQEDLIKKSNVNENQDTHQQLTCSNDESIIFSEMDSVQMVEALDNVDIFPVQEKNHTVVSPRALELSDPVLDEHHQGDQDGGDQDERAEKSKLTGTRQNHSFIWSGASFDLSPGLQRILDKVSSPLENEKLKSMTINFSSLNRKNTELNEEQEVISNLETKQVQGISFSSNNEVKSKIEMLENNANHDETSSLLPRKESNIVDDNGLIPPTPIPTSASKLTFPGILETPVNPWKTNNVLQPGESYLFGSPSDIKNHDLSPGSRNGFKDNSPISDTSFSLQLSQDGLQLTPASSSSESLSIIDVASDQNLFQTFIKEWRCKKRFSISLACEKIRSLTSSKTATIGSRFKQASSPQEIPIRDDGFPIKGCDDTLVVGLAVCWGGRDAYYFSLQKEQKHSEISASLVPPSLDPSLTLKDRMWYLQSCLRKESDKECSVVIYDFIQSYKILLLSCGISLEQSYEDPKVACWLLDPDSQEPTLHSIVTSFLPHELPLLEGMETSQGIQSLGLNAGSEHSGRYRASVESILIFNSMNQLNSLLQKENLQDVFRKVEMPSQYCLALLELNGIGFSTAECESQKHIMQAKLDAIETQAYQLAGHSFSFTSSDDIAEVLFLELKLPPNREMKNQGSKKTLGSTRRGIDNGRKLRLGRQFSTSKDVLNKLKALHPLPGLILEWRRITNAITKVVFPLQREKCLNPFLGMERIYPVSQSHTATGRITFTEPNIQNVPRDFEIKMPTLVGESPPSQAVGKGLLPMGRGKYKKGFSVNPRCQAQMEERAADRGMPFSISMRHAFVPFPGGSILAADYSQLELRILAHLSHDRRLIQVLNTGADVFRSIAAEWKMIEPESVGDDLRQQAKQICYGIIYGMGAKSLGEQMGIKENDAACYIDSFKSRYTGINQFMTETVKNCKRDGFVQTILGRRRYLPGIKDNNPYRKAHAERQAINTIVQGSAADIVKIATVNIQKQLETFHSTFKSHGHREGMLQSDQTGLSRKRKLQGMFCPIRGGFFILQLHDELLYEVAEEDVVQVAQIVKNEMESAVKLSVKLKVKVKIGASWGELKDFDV
Compound,remaining activity [%]
COc1ccccc1-c1cc(Nc2cccc(CS(N)(=O)=O)c2)ncn1,97
CC(C)c1nc(N(C)S(C)(=O)=O)nc(-c2ccc(F)cc2)c1/C=C/[C@@H](O)C[C@@H](O)CC(=O)O,99.5
CCN(c1nc(N)c(C(=O)NC(=N)N)nc1Cl)C(C)C,101
CC[n+]1c(/C=C/C=C2/N(C)c3ccccc3C2(C)C)sc2ccccc21,88.2
O=C(/C=C/c1cccc(S(=O)(=O)Nc2ccccc2)c1)NO,102

# Block 4 — cell line: mouse MPNST tumor cells; technique: high-content nuclear imaging; refers to: cell number; concentration: 10 µM; time: 12 h; notes: mean of 2 replicates; reference: plate mean; reading: higher = more cells
Structure (SMILES),nuclei count
CC(C)c1ccc(CC(=O)N2CCCC(c3cccc(OC(C)(C)C(=O)O)c3)C2)cc1 (stereo not shown),-0.127 z-score
Nc1nc(F)nc2c1ncn2[C@@H]1O[C@H](CO)[C@@H](O)[C@@H]1O,0.839 z-score and 0.547 z-score
Cc1cc(C)c2c(N)c(C(=O)NCc3ccc(Cl)cc3)sc2n1,1.93 z-score
O=C1[C@@H]2[C@H]3CC[C@H](C3)[C@@H]2C(=O)N1CCCCN1CCN(c2ncccn2)CC1,-0.17 z-score

# Block 5 — read-out: cell-free assay; technique: competition with immobilised ligand; concentration: 1 µM
# Structure (SMILES): CN(c1ccnc(CNc2nc(Nc3ccc4c(c3)CC(=O)N4)ncc2C(F)(F)F)n1)S(C)(=O)=O
target,remaining binding [%]
"EGFR (Homo sapiens, UniProt P00533, G719C)",86
"PNCK (Homo sapiens, UniProt Q6P2M8)",66
"ANKK1 (Homo sapiens, UniProt Q8NFD2)",84
"CSNK1G1 (Homo sapiens, UniProt Q9HCP0)",100
"STK24 (Homo sapiens, UniProt Q9Y6E0)",93
"MAPK4 (Homo sapiens, UniProt P31152)",57
"TEK (Homo sapiens, UniProt Q02763)",50
"CSNK1G2 (Homo sapiens, UniProt P78368)",100
"BUB1 (Homo sapiens, UniProt O43683)",91
"FLT4 (Homo sapiens, UniProt P35916)",92
"PAK5 (Homo sapiens, UniProt Q9P286)",76
"STK17B (Homo sapiens, UniProt O94768)",48
"Ribosomal protein S6 kinase alpha-5, C-terminal kinase domain (RPS6KA5, Homo sapiens, UniProt O75582)",78
"RIPK2 (Homo sapiens, UniProt O43353)",82
"RET (Homo sapiens, UniProt P07949, V804M)",31
"CDK4 (Homo sapiens, UniProt P11802)",100
"PKMYT1 (Homo sapiens, UniProt Q99640)",100
"MERTK (Homo sapiens, UniProt Q12866)",21

# Mixed results
SMILES,tested on,test,test system,conditions,quantity,result
CC(C)[C@H](N)C(=O)OCC(CO)OCn1cnc2c(=O)nc(N)[nH]c21 (stereo partly shown),A-375,,,"100 µM, 60 h",viability,99.7%
C[C@H]1CC[C@H](n2c3cnccc3c3cnc(Nc4ccc5c(n4)CCN(C(=O)CO)C5)nc32)CC1,"ULK3 (Homo sapiens, UniProt Q6PHR2)",,,1 µM,receptor occupancy,-5.74%
CC(C)n1cnc(-c2ccc(F)cc2)c1-c1ncc(C(=O)Nc2ccc(N3CCN(C)CC3)cc2)[nH]1,,phase 2a trial,idiopathic pulmonary fibrosis patients,"60 mg once daily, adverse event grade 1",patients with first-degree AV block,1%

# Excerpt of the above (block 5):
target,remaining binding [%]
"ANKK1 (Homo sapiens, UniProt Q8NFD2)",84
"TEK (Homo sapiens, UniProt Q02763)",50
"CDK4 (Homo sapiens, UniProt P11802)",100
"STK17B (Homo sapiens, UniProt O94768)",48
